Measurements pooled from the literature.
Numbered parts are unrelated; each lists some results of a single study.
Chain of UniProt Q8IVW4 (whole entry, looked up): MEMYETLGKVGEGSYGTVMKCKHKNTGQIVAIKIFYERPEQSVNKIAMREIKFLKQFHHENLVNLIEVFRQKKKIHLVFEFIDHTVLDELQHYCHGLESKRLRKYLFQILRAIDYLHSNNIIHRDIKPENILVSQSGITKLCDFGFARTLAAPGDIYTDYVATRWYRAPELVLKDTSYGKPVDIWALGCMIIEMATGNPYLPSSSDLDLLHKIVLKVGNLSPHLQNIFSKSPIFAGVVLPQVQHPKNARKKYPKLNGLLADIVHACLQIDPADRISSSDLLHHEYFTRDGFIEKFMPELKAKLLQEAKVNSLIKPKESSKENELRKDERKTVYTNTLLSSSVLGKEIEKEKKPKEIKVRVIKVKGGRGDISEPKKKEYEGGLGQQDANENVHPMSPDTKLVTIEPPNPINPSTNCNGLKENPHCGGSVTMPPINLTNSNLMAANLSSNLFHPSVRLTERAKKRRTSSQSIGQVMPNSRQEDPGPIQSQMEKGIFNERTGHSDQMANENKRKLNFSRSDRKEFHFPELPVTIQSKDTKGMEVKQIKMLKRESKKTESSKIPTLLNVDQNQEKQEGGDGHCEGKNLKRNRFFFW
Chain of UniProt Q9H4A3 (whole entry, looked up): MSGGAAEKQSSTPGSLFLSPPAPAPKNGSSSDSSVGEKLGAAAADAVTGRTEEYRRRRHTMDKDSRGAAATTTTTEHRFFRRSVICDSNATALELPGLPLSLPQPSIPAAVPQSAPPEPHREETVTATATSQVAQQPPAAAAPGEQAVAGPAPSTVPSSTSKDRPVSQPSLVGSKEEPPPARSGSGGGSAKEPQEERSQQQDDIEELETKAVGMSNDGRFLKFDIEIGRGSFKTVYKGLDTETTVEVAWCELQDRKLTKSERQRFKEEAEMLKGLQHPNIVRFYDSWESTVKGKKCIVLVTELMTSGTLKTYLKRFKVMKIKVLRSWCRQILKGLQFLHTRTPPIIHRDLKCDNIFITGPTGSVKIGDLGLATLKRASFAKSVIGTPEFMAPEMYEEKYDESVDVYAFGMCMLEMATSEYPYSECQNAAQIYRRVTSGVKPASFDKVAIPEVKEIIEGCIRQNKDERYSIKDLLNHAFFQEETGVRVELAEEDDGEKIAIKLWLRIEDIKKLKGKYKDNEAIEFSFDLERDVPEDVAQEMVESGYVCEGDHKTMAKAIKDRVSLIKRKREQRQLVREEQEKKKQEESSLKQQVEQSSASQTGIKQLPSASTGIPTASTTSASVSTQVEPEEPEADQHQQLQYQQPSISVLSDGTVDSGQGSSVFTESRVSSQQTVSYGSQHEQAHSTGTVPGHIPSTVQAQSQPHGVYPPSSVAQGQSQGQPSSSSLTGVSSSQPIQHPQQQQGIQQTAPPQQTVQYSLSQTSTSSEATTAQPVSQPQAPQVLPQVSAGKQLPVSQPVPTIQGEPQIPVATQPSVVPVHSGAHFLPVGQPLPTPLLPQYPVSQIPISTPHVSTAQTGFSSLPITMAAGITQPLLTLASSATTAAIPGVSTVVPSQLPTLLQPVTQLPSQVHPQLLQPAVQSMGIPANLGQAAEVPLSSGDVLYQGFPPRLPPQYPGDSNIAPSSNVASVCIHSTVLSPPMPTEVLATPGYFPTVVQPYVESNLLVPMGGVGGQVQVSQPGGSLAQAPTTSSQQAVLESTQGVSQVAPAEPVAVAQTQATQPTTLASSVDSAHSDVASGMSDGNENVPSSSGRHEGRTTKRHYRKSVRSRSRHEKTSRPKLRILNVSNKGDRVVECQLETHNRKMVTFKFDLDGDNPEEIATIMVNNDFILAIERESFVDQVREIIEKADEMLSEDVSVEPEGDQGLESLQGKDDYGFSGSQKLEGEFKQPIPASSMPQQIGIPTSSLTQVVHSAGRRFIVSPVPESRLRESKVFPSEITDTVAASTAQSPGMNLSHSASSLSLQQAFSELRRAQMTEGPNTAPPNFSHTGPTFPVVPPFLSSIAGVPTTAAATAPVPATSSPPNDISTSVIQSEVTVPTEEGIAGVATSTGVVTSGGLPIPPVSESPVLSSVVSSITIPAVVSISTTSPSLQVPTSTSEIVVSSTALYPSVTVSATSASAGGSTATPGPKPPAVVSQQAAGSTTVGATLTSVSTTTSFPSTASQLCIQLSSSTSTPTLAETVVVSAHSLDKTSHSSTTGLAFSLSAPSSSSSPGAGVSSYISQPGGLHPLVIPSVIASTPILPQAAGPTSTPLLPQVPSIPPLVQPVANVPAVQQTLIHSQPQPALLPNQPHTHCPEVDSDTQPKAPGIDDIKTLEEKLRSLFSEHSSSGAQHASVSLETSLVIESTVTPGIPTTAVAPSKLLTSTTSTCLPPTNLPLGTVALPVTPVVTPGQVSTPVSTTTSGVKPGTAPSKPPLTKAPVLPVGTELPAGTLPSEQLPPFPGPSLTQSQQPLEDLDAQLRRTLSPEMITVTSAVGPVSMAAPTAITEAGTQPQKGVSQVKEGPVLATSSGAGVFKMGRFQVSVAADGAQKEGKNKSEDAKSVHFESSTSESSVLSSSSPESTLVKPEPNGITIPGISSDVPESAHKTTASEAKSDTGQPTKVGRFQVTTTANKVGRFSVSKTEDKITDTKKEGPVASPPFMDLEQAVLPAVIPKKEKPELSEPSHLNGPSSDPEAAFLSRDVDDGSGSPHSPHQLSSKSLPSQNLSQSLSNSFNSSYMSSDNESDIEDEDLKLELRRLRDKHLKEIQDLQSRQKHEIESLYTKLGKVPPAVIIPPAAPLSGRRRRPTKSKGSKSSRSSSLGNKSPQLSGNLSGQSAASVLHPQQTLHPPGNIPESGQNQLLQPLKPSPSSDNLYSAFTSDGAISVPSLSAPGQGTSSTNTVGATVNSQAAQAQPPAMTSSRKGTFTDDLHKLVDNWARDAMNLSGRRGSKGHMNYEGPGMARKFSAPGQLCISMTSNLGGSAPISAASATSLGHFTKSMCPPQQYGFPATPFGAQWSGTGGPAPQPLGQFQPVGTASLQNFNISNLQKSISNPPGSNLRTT
Chain of UniProt Q9BRS2 (whole entry, looked up): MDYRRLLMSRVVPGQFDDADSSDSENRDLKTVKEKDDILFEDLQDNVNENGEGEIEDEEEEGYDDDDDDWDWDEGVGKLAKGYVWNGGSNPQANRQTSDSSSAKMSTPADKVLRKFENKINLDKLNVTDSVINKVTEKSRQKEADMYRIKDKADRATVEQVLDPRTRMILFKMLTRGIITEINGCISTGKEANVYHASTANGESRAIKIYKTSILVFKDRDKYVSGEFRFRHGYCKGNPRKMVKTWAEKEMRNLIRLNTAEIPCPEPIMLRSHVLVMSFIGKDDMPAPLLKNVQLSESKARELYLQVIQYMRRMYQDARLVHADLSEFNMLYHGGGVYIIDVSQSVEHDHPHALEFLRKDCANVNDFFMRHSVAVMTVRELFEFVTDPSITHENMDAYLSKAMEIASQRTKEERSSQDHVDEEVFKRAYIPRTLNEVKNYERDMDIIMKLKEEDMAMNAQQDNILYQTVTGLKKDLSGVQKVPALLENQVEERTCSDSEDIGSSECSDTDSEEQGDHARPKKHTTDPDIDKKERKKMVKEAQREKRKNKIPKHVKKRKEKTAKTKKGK
Chain of UniProt P37023 (whole entry, looked up): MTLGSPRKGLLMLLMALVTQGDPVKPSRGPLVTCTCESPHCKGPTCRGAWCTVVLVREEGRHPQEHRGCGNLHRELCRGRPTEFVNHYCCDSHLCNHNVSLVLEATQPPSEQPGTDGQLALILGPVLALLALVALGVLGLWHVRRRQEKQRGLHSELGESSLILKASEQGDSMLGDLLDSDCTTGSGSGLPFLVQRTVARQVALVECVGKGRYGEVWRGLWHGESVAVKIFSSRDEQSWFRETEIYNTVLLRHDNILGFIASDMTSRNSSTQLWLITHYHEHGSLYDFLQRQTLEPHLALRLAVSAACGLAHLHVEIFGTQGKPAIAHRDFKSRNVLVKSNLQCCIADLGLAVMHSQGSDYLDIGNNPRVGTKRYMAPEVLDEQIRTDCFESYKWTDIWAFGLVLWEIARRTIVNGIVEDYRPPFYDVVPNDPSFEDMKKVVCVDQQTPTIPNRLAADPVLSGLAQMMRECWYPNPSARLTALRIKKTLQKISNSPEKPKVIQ
Chain of UniProt Q9UK32 (whole entry, looked up): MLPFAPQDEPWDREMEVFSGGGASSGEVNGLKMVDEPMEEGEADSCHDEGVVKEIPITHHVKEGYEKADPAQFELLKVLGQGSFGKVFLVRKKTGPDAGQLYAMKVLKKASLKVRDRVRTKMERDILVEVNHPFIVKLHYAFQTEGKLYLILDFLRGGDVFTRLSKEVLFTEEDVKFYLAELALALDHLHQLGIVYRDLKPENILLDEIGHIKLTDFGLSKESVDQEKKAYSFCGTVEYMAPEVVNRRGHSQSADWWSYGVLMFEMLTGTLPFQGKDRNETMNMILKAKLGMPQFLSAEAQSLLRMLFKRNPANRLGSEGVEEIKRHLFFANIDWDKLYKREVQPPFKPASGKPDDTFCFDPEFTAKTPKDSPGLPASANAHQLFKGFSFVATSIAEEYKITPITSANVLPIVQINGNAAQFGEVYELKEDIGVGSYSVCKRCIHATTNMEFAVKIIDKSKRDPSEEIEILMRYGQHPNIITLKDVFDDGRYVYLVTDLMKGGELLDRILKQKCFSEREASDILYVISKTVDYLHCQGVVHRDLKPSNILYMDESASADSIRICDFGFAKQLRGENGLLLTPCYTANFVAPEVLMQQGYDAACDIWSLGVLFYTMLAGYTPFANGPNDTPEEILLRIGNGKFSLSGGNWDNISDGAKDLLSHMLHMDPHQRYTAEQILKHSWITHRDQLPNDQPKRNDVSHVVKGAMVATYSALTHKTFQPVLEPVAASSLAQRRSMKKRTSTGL

Sample 1 — method: competition with immobilised ligand; concentration: 1 µM
SMILES: CC(=O)N1CCC(c2ccc(C(=O)NC(=N)N)cc2C(F)(F)F)CC1
target	effect on	remaining binding
IKBKB (Homo sapiens, UniProt O14920)	cell-free assay	100%
RIOK1 (Homo sapiens, UniProt Q9BRS2)	cell-free assay	100%
NUAK1 (Homo sapiens, UniProt O60285)	cell-free assay	100%
BRSK2 (Homo sapiens, UniProt Q8IWQ3)	cell-free assay	100%
Tyrosine-protein kinase ABL1, phosphorylated (ABL1, Homo sapiens, UniProt P00519, H396P)	cell-free assay	86%
COQ8A (Homo sapiens, UniProt Q8NI60)	cell-free assay	96%
ACVRL1 (Homo sapiens, UniProt P37023)	binding	100%
DYRK2 (Homo sapiens, UniProt Q92630)	cell-free assay	89%
HIPK4 (Homo sapiens, UniProt Q8NE63)	cell-free assay	100%
WNK1 (Homo sapiens, UniProt Q9H4A3)	cell-free assay	100%
CDKL3 (Homo sapiens, UniProt Q8IVW4)	cell-free assay	100%
TRPM6 (Homo sapiens, UniProt Q9BX84)	cell-free assay	98%
Ribosomal protein S6 kinase alpha-6, N-terminal kinase domain (RPS6KA6, Homo sapiens, UniProt Q9UK32)	cell-free assay	96%
FGFR3 (Homo sapiens, UniProt P22607)	cell-free assay	100%

Sample 2 — method: RNA Bind-n-Seq; form: RNA; sample: in vitro; concentration: 365 nM; baseline: no-protein control; reading: higher = stronger binding
Target: RNA binding protein fox-1 homolog 2, RRM domain, GST-SBP tag (RBFOX2, Homo sapiens, UniProt O43251-10, residues 100-194)
Notes: natural RNA segment, single round, ends assumed
Construct (chain): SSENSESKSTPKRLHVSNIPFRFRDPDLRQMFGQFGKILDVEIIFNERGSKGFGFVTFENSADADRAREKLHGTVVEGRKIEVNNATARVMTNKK
Sequence	RBNS enrichment (R)
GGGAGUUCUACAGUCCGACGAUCUCUCACCUUUUUAAAAAUUUCCAUACAACUUGAGAAUUAGGUAAGUUCCUUUGUAUACAAAUUUCAGCAGCUAGGAUAUGUCACCCUUCAGUACUACAAAGUACAGAAAUUGGAAUUCUCGGGUGCCAA	1.24
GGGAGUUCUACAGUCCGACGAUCGGUGGCCGCAUGCCGGCGCGUGUCUGUUUCUGUGCGGCGGCUCAGGGUGGCGCGGCUGCUGCUCACUGUGCUGCUGGGACCCAAGAGUGGGGCGUCGCCCCUGCUGGCCGUGGAAUUCUCGGGUGCCAA	0.952
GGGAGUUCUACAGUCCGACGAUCUAUGUAAGUCAGUUCUUCAGGCUCAUUUGCUGUGCUGGUUUUACUAUUAUUUGUUUUCAAUGUAUAAAGGCAGUAUUUCCCUUUUCAGGUUGCUGAGAAAUGUAAGAGGAUGGAAUUCUCGGGUGCCAA	0.609
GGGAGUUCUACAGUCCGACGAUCGGAGAAGGAGCGGGCCCUCCCGCGCCCUGUGCUGGCCGGAGCAGCGUUUUCUUAUGGUGGAGCAGCUGAGGAGGGCAGGAACCGCCUCUCAGCACCGACCUCCCCUGAUCUGGAAUUCUCGGGUGCCAA	0.259
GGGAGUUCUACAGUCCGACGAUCUUCAUUUUAUCAAAAGCAGGGCCCCUUUCAGAUCUCUCUUCAUUUCACCAUACAUCUUGGAAUUCUGUAAGUUUGUAUCCUAACUUGCCCAUAUUCUAAAUUUACAUAGUUGGAAUUCUCGGGUGCCAA	0.902
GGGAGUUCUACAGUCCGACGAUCCCUGCGGGUCGCACCCCAGGCAUACUGAAAGGCCAUACUCGUGGCUGGCUGCCUGCGGGCCUAAGCCUUCCCAGGAUCUUCAGGACACUUGACAGACUUGUGUUUUCUGGUGGAAUUCUCGGGUGCCAA	0.385
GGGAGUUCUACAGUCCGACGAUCUUGGUGAACCUGCUGGUUAGGGCAGCAGCAGAGGUGAGGCUGUUCCUCUCUCUCUCUGUCUCUCUCUGGUCUCUGUCUCUCUCUCUUUUUUUACCAGAACCCUUCUGCAAUGGAAUUCUCGGGUGCCAA	1.33
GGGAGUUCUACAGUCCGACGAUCGGUCUCUGUGAGCGCCACGCUGCUGUGCUGGAAAUGCCGCUUUAAAAAGGGAUACCGUGGGACUCUGCCCGUCUCUUUCAUAACGCAAUAUUUAUUUGUAUUGGGUGAUGUGGAAUUCUCGGGUGCCAA	0.266

Sample 3 — method: RNAcompete; form: RNA; sample: in vitro; concentration: 20 nM; notes: 7-mer, probes averaged, single round; baseline: mean of 7-mers; reading: higher = stronger binding
Target: PABPC1L2, full length, GST fusion (mouse, UniProt A0ABA7IW68)
Residues (chain): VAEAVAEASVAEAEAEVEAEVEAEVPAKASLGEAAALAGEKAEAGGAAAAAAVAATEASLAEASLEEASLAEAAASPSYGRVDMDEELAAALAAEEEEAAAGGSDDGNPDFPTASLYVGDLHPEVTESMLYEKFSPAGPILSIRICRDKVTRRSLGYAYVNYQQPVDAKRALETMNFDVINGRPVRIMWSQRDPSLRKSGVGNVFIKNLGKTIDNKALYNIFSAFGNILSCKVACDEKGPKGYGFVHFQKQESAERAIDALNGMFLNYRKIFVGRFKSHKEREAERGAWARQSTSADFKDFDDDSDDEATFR
Sequence	7-mer Z-score
GCUCUAG	-0.155
AGAUUCU	-0.367
AUAUCCC	-0.255
CCGUCUC	-0.394
CUCUUAC	-0.389
AUAAUGG	0.046
GCCAGCA	-0.0428
CGAGAUU	-0.0464

Other studies, line by line
Compound	tested on	test	system	setting	how to read	endpoint	value
O=C(OCCOCCO)c1ccccc1Nc1cccc(C(F)(F)F)c1	mouse MPNST tumor cells	high-content nuclear imaging, refers to: cell number	–	10 µM, 12 h, mean of 2 replicates	baseline: plate mean, higher = more cells	nuclei count	1.06 z-score
COCCCn1cnnc1C(C)NC(=O)c1cnn[nH]1 (stereo not shown)	–	–	human, microsomes or S9	2 µM, 0.5 h	–	remaining compound	80.4%
COc1cc2nc(N3CCN(C(=O)COc4c(OC)cccc4C(C)C)CC3)nc(N)c2cc1OC	mouse MPNST tumor cells	high-content nuclear imaging, refers to: cell number	–	10 µM, 12 h, mean of 2 replicates	baseline: plate mean, higher = more cells	nuclei count	-5.42 z-score
FC(F)(F)C(Cl)Br (stereo not shown)	Plasmodium berghei	inhibitor	Huh-7, liver stage	10 µM, 24 h	baseline: untreated control	infection rate	104%

Repeated from above (sample 3):
Sequence	7-mer Z-score
CCGUCUC	-0.394
AUAUCCC	-0.255
CUCUUAC	-0.389
AGAUUCU	-0.367
